Assay results of several laboratories.
Every numbered part comes from another study and shows a few of its results, in no order.
Chain of UniProt Q07912 (whole entry, looked up): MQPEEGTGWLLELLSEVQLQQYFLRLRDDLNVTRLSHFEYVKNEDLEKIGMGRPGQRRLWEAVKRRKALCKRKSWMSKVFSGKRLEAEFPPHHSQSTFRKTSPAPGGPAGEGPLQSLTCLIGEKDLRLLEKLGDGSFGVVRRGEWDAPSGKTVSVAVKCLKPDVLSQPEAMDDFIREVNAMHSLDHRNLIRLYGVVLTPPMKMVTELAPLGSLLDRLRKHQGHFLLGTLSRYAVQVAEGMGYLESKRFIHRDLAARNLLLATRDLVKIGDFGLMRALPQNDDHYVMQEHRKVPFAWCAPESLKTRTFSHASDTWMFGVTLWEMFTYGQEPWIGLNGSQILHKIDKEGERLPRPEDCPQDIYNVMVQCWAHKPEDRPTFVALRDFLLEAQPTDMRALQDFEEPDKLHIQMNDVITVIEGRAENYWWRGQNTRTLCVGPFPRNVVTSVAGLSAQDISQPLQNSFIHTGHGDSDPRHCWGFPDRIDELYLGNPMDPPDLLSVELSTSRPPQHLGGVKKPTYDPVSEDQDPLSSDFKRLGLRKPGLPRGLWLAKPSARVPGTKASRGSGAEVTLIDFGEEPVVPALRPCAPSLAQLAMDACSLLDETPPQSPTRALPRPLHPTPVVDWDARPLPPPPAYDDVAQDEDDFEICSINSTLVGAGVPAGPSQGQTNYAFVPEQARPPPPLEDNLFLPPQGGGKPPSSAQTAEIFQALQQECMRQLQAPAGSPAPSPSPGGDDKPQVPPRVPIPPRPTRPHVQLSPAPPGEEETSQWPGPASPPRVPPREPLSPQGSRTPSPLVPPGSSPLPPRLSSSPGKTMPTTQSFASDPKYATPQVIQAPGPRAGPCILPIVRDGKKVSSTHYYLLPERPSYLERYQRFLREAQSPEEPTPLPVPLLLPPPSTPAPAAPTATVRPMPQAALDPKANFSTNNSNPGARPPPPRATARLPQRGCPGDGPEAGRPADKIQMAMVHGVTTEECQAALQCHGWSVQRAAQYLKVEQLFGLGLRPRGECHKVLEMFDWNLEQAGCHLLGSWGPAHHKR
Chain of UniProt O14733 (whole entry, looked up): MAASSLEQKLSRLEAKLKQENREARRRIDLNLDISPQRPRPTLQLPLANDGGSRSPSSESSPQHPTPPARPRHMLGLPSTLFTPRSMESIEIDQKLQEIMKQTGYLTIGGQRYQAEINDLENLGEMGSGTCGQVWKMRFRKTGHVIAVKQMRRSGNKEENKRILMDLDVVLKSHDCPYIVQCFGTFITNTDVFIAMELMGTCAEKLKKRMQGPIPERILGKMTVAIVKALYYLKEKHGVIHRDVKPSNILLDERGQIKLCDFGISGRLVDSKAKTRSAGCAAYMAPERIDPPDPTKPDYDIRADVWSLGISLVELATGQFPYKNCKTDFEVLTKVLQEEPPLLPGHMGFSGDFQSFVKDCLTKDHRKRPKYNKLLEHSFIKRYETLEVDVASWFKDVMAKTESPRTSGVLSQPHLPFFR
Chain of UniProt Q13164 (whole entry, looked up): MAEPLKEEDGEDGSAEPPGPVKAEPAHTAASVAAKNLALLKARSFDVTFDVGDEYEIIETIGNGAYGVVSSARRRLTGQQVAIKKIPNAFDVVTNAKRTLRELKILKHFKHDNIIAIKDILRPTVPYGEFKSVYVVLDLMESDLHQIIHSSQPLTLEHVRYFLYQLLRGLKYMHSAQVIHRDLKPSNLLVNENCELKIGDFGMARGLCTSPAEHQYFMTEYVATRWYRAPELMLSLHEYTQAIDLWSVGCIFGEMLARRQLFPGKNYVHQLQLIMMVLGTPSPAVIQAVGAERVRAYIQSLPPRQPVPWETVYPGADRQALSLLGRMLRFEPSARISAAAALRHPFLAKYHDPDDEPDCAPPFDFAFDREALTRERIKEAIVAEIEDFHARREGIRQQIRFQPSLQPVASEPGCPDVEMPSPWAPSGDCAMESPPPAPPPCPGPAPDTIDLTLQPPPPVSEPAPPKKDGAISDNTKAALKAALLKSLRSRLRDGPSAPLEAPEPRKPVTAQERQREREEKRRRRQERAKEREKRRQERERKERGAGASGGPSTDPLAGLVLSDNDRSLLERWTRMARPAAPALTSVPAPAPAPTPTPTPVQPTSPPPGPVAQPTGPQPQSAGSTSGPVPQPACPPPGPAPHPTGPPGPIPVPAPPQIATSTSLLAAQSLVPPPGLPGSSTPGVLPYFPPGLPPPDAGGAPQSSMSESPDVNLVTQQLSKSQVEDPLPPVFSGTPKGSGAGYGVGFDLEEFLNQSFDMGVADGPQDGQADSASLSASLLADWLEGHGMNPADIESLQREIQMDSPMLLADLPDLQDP
Chain of UniProt Q9C098 (whole entry, looked up): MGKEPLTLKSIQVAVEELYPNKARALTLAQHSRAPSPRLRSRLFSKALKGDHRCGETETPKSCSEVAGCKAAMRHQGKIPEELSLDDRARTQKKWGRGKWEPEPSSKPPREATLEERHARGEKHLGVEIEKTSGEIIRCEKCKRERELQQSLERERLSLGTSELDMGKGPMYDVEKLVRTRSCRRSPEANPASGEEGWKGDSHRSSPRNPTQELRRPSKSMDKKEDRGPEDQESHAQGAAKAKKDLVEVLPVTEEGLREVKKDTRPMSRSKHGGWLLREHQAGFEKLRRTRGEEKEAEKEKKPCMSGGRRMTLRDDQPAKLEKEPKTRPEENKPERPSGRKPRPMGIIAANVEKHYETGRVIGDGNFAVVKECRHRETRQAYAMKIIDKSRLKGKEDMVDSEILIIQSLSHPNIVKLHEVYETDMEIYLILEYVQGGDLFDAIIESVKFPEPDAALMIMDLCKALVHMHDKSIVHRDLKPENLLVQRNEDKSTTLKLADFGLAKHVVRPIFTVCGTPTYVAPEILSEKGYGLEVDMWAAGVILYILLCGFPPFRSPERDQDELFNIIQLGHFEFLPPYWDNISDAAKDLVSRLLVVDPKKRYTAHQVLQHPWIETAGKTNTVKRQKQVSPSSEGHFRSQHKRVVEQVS
Chain of UniProt Q7L7X3 (whole entry, looked up): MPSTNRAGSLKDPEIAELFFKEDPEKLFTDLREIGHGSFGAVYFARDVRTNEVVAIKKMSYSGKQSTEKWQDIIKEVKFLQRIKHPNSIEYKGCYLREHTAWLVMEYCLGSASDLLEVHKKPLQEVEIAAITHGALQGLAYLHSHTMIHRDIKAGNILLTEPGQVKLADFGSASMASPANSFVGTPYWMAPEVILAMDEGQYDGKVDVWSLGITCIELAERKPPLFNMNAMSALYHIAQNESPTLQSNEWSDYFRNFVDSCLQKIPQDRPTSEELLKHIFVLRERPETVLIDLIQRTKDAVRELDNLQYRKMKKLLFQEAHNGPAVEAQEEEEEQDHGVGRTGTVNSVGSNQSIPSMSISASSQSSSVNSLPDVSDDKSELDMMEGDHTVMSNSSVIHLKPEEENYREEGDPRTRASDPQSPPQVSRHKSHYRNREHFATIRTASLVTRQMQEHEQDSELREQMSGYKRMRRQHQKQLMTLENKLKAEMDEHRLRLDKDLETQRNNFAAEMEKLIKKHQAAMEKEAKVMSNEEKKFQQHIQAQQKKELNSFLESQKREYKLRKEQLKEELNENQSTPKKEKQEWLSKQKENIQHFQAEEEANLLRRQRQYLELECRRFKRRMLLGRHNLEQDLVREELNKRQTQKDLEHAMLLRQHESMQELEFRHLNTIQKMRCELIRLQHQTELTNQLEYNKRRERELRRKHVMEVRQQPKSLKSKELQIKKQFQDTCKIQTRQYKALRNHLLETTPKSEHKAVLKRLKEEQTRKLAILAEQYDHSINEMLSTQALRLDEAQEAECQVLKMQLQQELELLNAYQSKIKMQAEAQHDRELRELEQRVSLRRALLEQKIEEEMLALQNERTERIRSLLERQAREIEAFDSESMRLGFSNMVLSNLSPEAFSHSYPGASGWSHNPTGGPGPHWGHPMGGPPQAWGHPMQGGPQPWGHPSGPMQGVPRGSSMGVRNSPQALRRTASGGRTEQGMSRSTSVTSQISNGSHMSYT

Set 1
Structure (SMILES): NS(=O)(=O)c1cc(NC(=O)Cc2ccccc2)ccc1Oc1cccc(Cl)c1
Effect on: cell-free assay
Technique: competition with immobilised ligand
Tested at: 1 µM
target	remaining binding
PIK3CD (Homo sapiens, UniProt O00329)	93%
DCLK3 (Homo sapiens, UniProt Q9C098)	92%
Ribosomal protein S6 kinase alpha-2, C-terminal kinase domain (RPS6KA2, Homo sapiens, UniProt Q15349)	89%
MAP2K7 (Homo sapiens, UniProt O14733)	91%
TNK2 (Homo sapiens, UniProt Q07912)	79%
TAOK1 (Homo sapiens, UniProt Q7L7X3)	93%
EPHA5 (Homo sapiens, UniProt P54756)	62%

Set 2
Target: G protein-coupled receptor kinase 3 (GRK3, Homo sapiens, UniProt P35626)
Chain of UniProt P35626 (whole entry, looked up): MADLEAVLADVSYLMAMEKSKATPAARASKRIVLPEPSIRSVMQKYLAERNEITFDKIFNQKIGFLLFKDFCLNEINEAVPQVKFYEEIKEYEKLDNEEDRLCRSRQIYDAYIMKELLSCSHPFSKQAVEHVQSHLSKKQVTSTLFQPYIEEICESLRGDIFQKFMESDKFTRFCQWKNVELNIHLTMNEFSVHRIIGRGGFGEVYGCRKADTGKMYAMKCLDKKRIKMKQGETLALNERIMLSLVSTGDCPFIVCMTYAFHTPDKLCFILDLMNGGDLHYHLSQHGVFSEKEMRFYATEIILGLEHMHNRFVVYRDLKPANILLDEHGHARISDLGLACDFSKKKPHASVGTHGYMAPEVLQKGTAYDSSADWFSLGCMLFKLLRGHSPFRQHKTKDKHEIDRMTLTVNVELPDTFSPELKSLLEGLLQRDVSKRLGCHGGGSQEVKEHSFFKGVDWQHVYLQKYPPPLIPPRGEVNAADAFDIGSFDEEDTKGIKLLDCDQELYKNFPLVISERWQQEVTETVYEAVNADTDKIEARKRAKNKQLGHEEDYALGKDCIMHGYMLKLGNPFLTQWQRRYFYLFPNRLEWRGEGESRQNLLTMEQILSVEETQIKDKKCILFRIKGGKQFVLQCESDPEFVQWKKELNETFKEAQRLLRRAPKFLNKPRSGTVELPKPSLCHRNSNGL
Effect on: enzyme activity
Action: inhibitor
Tested at: 0.5 µM
Baseline: control
Structure (SMILES)	remaining activity [%]
Nc1ccc2ncnc(NCCc3ccc(Oc4ccccc4)cc3)c2c1	97.9
COc1ccc(C(=O)Nc2sc3c(c2C(N)=O)CCCC3)cc1OC	103
CN(C)c1ccc(C=C2C(=O)Nc3ccccc32)cc1	98.9
O=C1NC(=O)C(c2cn(CCCO)c3ncccc23)=C1c1cnccn1	99.9
Cn1sc(=O)n(Cc2ccccc2)c1=O	99.6
COc1ccc(OC)c2c(=S)c3ccccc3[nH]c12	86.5
COc1cc2ncnc(Nc3ccc(F)c(Cl)c3)c2cc1OCCCN1CCOCC1	97.9
C#Cc1cccc(Nc2ncnc3cc(OCCOC)c(OCCOC)cc23)c1	94.8
COc1cc2ncnc(Nc3ccc(Oc4ccccc4)cc3)c2cc1OC	91.8
Nc1[nH]nc2nc3ccccc3nc12	92.4
Cc1nc(-c2ccccc2)c(-c2ccncc2)o1	101
O=C1NC(=O)C(c2cn(CCCn3ccnc3)c3ccccc23)=C1Nc1ccccc1	97.9
Oc1ccc(-c2nc(-c3ccncc3)c(-c3ccc(F)cc3)[nH]2)cc1	99.3
N#CC(C#N)=C(N)/C(C#N)=C/c1ccc(O)cc1	96.7
CCOC(=O)c1c(C)[nH]c(/C=C2\C(=O)Nc3ccccc32)c1C	94.7

Set 3
Effect on: AlphaScreen signal
Technique: AlphaScreen counter screen
Medium: His6 peptide without bromodomain
Tested at: 50 µM
Setting: assay interference check
Compound	inhibition [%]
CCn1c(-c2nonc2N)nc2cnc(Oc3cccc(NC(=O)c4ccc(OCCN5CCOCC5)cc4)c3)cc21	33.5
COc1cc(N2CCC(N3CCN(C)CC3)CC2)ccc1Nc1ncnc(Nc2ccccc2S(=O)(=O)C(C)C)n1	50.5
Cc1ccc([N+](=O)[O-])cc1S(=O)(=O)N(C)N=Cc1cnc2ccc(Br)cn12	57
O=C1c2ccccc2-c2nc3nnnn3nc21	-1.7
COc1ccc(-c2nnc3ccc(SCc4cccnc4)nn23)cc1OC	6.25
COc1cc(Nc2ncc(F)c(Nc3ccc4c(n3)NC(=O)C(C)(C)O4)n2)cc(OC)c1OC	16.5
CNC(=O)c1nn(C)c2c1C(C)(C)Cc1cnc(Nc3ccc(N4CCN(C)CC4)cc3)nc1-2	54
N#C/C(=C(/N)SC1C=CC=CC1)c1cccc(C(O)c2ccncc2)c1 (stereo not shown)	11.1

Set 4
SMILES: C=CC(=O)N1CCC([C@@H]2CCNc3c(C(N)=O)c(-c4ccc(Oc5ccccc5)cc4)nn32)CC1
Effect on: enzyme activity
Action: inhibitor
Tested at: 1 µM
target	inhibition
MAPK7 (Homo sapiens, UniProt Q13164)	7%
WEE2 (Homo sapiens, UniProt P0C1S8)	8%
KIT (Homo sapiens, UniProt P10721, A829P)	0%
MAP3K12 (Homo sapiens, UniProt Q12852)	0%

Repeated from above (set 4):
target	inhibition
MAPK7 (Homo sapiens, UniProt Q13164)	7%
MAP3K12 (Homo sapiens, UniProt Q12852)	0%
WEE2 (Homo sapiens, UniProt P0C1S8)	8%
